# Measurements of several laboratories.
# Protocols differ between the studies behind these lines. ± gives the spread as reported.
SMILES,assay,test system,conditions,how to read,quantity,value
Oc1cccc(-c2cccc(O)n2)n1.[Cl-].[Cl-].[Ru+2].c1cnc2c(c1)c1c(c3cccnc32)OCCO1.c1cnc2c(c1)c1c(c3cccnc32)OCCO1,shake flask,octanol/acetate buffer,pH 4.00,,logD,0.83
Cn1c(=O)oc2ccc(-c3ccc(CC(C#N)NC(=O)C4CNCCCO4)c(F)c3)cc21 (centres unmarked),measured: blood fibrinogen decreased,human volunteers,"oral, dose not given",,treatment-emergent adverse event incidence,3.7%
O=S(=O)(O)c1cc(O)c(O)c(S(=O)(=O)O)c1,Stokes-Einstein equation,1 M H2SO4,,,hydrodynamic radius,5.8 Å
Cc1[nH]c(/C=C2\C(=O)Nc3ccc(F)cc32)c(C)c1NC(=O)CCN1CCN(C)CC1,,dog plasma,"40 ng/mL, 24 h at room temperature after processing, 25 °C",,accuracy deviation,-0.65%
Cc1cc(O)cc(O)c1C(=O)c1c2c3c(c(O)cc(C)c3oc1=O)C(=O)c1c(O)cc(O)cc1-2,,"mouse, bone marrow","intraperitoneal, 400 mg/kg, 30 h",,PCE/NCE ratio,0.81 ± 0.2
CCCC[C@H](NC(=O)CNC(=O)CNC(=O)CN1CCN(CC(=O)O)CCN(CC(=O)O)CCN(CC(=O)O)CC1)C(=O)N[C@H]1CC(=O)NCCCC[C@@H](C(N)=O)NC(=O)[C@H](Cc2c[nH]c3ccccc23)NC(=O)[C@H](CCCNC(=N)N)NC(=O)[C@@H](Cc2ccccc2)NC(=O)[C@H](Cc2c[nH]cn2)NC1=O [copper-64 labelled],,"female C57 mouse, B16/F1 melanoma","intravenous, 0.037 MBq, 0.5 h",relative to: tumour over muscle,uptake ratio,7.01
CC(C)(C)ONc1nc(Nc2ccnc(C(F)(F)F)c2)nc(-c2cccc(C(F)(F)F)n2)n1,,female Balb/cA nude mice xenograft,"oral, 18.05 mg/kg, Cmax",relative to: tumour over plasma,tissue/plasma ratio,4.4
CCNC(=O)[C@@]1(c2ccccc2)C[C@H]1CN,,healthy men,"oral, 60 mg, 0-120 h",relative to: dose,urinary excretion,18.2%
CCCC(CCC(=O)O)NC(=O)c1ccc2c(c1)OCO2 (centres unmarked),,"female Sprague-Dawley rats, plasma","oral, 200 mg/kg of parent drug",relative to: 200 over 20 mg/kg dose,Cmax ratio,3.48
CC(=O)N[C@@H](CCCCN)C(=O)N[C@@H](CCCCN)C(=O)N[C@@H](CCCCN)C(=O)N[C@@H](CCCCN)C(=O)N[C@@H](CCCCN)C(=O)N[C@@H](CCCCN)C(=O)N[C@@H](CCCCN)C(=O)N[C@@H](CCCCN)C(=O)N[C@@H](CCCCN)C(=O)N[C@@H](CCCCN)C(=O)N[C@@H](CCC(N)=O)C(=O)N[C@@H](Cc1c[nH]c2ccccc12)C(=O)N[C@@H](CCC(N)=O)C(=O)N[C@@H](Cc1c[nH]c2ccccc12)C(=O)N[C@@H](CCC(N)=O)C(=O)N[C@@H](Cc1c[nH]c2ccccc12)C(=O)N[C@@H](CCC(N)=O)C(=O)N[C@@H](Cc1c[nH]c2ccccc12)C(=O)N[C@@H](CCC(N)=O)C(=O)N[C@@H](Cc1c[nH]c2ccccc12)C(=O)N[C@@H](CCC(N)=O)C(=O)N[C@@H](Cc1c[nH]c2ccccc12)C(N)=O,sedimentation velocity AUC,Tris buffer 20 mM,"20 µM, 24 h, pH 7.4, 4 °C",,number of subunits per assembly,12 subunits
O=c1c2ccccc2[se]n1CCCCCCn1[se]c2ccccc2c1=O,,20% SOL in water,"24 h, 25 °C",,solubility,880 µg/mL
CC(C)C[C@@H](NC(=O)[C@H](NC(=O)[C@H]1CCCN1)[C@H](C)O)C(=O)N[C@H](Cc1c[nH]cn1)C(=O)N[C@@H](C(=O)N[C@H](Cc1c[nH]cn1)C(=O)N[C@H](CC(N)=O)C(=O)N[C@H](CCCNC(=N)N)C(=O)N[C@H](CCCNC(=N)N)C(=O)N[C@H](CCCNC(=N)N)C(=O)N[C@H](CCCNC(=N)N)C(=O)N[C@H](CCCNC(=N)N)C(N)=O)[C@H](C)O,,"beagle dog, plasma","oral, 20 mg/kg, single dose",,half-life,62 h
CCNC(=O)OCc1c(COC(=O)NCC)c(-c2ccc(OC)cc2)n2c1Cc1ccccc1-2,,"BALB/c nude mice, blood","dose not given, day 10",,mean cell haemoglobin,15.4 ± 0.16 pg
CC(C)(O)c1ncc([S@](N)(=O)=NC(=O)Nc2c3c(cc4c2CCC4)CCC3)s1,,"healthy human subjects, all study parts","oral, dose not given",,subjects with general disorders,27%
CCOc1c(C(C)(C)O)sc2cnc(Nc3ccc(N4CCC(N5CC6(COC6)C5)CC4)cc3OC)nc12,,"New Zealand rabbit, male, isolated Purkinje fibres","30 µM, 45 min, pacing 1 Hz",,APD50 change,-14 ± 5%
CC[C@H](C)[C@H](NC(=O)[C@H](CC(C)C)NC(=O)[C@H](Cc1c[nH]c2ccccc12)NC(=O)[C@H](C)NC(=O)[C@@H](NC(=O)[C@H](Cc1ccccc1)NC(=O)[C@H](CC(=O)O)NC(=O)[C@H](CCCNC(=N)N)NC(=O)[C@H](C)NC(=O)[C@H](C)NC(=O)[C@H](CC(C)C)NC(=O)[C@H](C)NC(=O)[C@H](CC(=O)O)NC(=O)[C@H](CC(C)C)NC(=O)[C@@H](NC(=O)[C@@H](NC(=O)[C@H](C)NC(=O)[C@H](CC(C)C)NC(=O)[C@H](CCC(=O)O)NC(=O)[C@H](CO)NC(=O)[C@H](CO)NC(=O)[C@H](Cc1ccccc1)NC(=O)[C@@H](NC(=O)CNC(=O)[C@H](CCC(=O)O)NC(=O)CNC(=O)[C@@H](N)Cc1c[nH]cn1)[C@@H](C)O)[C@@H](C)O)[C@@H](C)CC)[C@@H](C)CC)C(=O)N[C@@H](C)C(=O)N[C@H](C(=O)N[C@@H](CCCCN)C(=O)N[C@H](C(=O)N[C@H](C(=O)N[C@@H](CC(=O)O)C(=O)N[C@@H](CCCCN)C(=O)O)[C@@H](C)O)[C@@H](C)CC)[C@@H](C)O,immunoaffinity LC-MS/MS,"healthy human subjects, plasma","subcutaneous, 10 mg once weekly, day 36 after 6 doses, steady state, geometric mean",,AUClast,0.259 µM·h
NC[C@@H](C(=O)Nc1ccc(-c2cn[nH]c2)cc1)c1ccccc1,OECD 405 eye irritation,"New Zealand White rabbit, eye","topical, 0.1%, 32 h (day 2), scale 0 to 3",direction not given,conjunctival redness score,0
CC(C)[C@H](NC(=O)[C@@H]1CCCN1C(=O)[C@H](CCCNC(=N)N)NC(=O)[C@H](CS)NC(=O)[C@H](Cc1c[nH]c2ccccc12)NC(=O)[C@H](CCCNC(=N)N)NC(=O)[C@@H](Cc1ccccc1)NC(=O)[C@H](Cc1c[nH]cn1)NC(=O)[C@H](CCC(=O)O)NC(=O)[C@H](CS)NC(=O)[C@H](CS)NC(=O)CNC(=O)[C@@H]1CC(=O)N[C@@H](CCCNC(=N)N)C(=O)NCC(=O)N[C@@H](CC(=O)O)C(=O)N[C@H](Cc2ccc(O)cc2)C(=O)N1)C(N)=O [technetium-99m labelled],,"C57 mouse, female, B16/F1 melanoma","intravenous, 0.037 MBq, 4 h",relative to: tumour over muscle,tumour to tissue ratio,72.6
CC(C)[C@H](NC(=O)[C@@H]1CCCN1C(=O)[C@H](CCCNC(=N)N)NC(=O)[C@H](CS)NC(=O)[C@H](Cc1c[nH]c2ccccc12)NC(=O)[C@H](CCCNC(=N)N)NC(=O)[C@@H](Cc1ccccc1)NC(=O)[C@H](Cc1c[nH]cn1)NC(=O)[C@H](CCC(=O)O)NC(=O)[C@H](CS)NC(=O)[C@H](CS)NC(=O)COCCOCCNC(=O)[C@@H]1CC(=O)N[C@@H](CCCNC(=N)N)C(=O)NCC(=O)N[C@@H](CC(=O)O)C(=O)N[C@H](Cc2ccc(O)cc2)C(=O)N1)C(N)=O [technetium-99m labelled],,"nude mouse, M21 melanoma xenograft, tumour over kidneys","intravenous, 0.037 MBq, 2 h",relative to: tumour over kidneys,tumour-to-tissue ratio,0.08 ± 0.01
Oc1ccc2ccccc2c1/N=N/c1ccccc1,,rat whole blood,"16.0 µg/L, 30 days, -20 °C, long-term storage",,measured concentration,16 µg/L
C#Cc1cccc(N(C(=O)CCl)C(C(=O)NC2CCCCC2)c2ccccn2)c1 (racemic),HPLC-MS,DPBS,"6 h, 37 °C",,conversion to pyridinium salt,~85%
"CNC(=O)N[C@]1(C)CCC[C@@]2(C)C3CC[C@@]4(C)C[C@]3(CCC21)CC4=O (single isomer, unassigned)",,"male Sprague-Dawley rat, plasma","intravenous, 2 mg/kg",,C0,3320 ng/mL
O=C([O-])CN1CCN(CC(=O)[O-])CCN(CC(=O)NCCc2ccc3c(c2)C2C=CCC2C(c2cc4c(cc2Br)OCO4)N3)CCN(CC(=O)[O-])CC1.[111In+3] (centres unmarked),,"mouse, Hec50 endometrial tumour, small intestine",4 h post injection,,tissue uptake,1.25 ± 0.11 %ID/g
O=C(O)C1CN(Cc2ccc(-c3noc(-c4ccc(OCC[18F])c(C(F)(F)F)c4)n3)cc2)C1,,"rat, bone","intravenous, 1 h",,tracer uptake,0.105 %ID/g
CC(C)c1cnc(-c2cc(Cl)ccc2F)cc1Nc1ccncc1C(=O)NC(CO)CO,measured: hepatic haemorrhage,human patients,"oral, dose not given, grade 5",,patients with related SAE,0%
NCCCC(=O)OCC(=O)c1ccc(O)cc1F.O=C(O)C(F)(F)F,photolysis at 300 nm,ammonium acetate buffered acetonitrile-water,"pH 5.0, 0.01 mol/L buffer",,quantum yield of disappearance,0.24

# Excerpt of the above:
SMILES,assay,test system,conditions,how to read,quantity,value
O=c1c2ccccc2[se]n1CCCCCCn1[se]c2ccccc2c1=O,,20% SOL in water,"24 h, 25 °C",,solubility,880 µg/mL
CC(C)C[C@@H](NC(=O)[C@H](NC(=O)[C@H]1CCCN1)[C@H](C)O)C(=O)N[C@H](Cc1c[nH]cn1)C(=O)N[C@@H](C(=O)N[C@H](Cc1c[nH]cn1)C(=O)N[C@H](CC(N)=O)C(=O)N[C@H](CCCNC(=N)N)C(=O)N[C@H](CCCNC(=N)N)C(=O)N[C@H](CCCNC(=N)N)C(=O)N[C@H](CCCNC(=N)N)C(=O)N[C@H](CCCNC(=N)N)C(N)=O)[C@H](C)O,,"beagle dog, plasma","oral, 20 mg/kg, single dose",,half-life,62 h
CCNC(=O)OCc1c(COC(=O)NCC)c(-c2ccc(OC)cc2)n2c1Cc1ccccc1-2,,"BALB/c nude mice, blood","dose not given, day 10",,mean cell haemoglobin,15.4 ± 0.16 pg
CC(C)(O)c1ncc([S@](N)(=O)=NC(=O)Nc2c3c(cc4c2CCC4)CCC3)s1,,"healthy human subjects, all study parts","oral, dose not given",,subjects with general disorders,27%
